Values quoted from earlier work as cited in several papers.
Each numbered part shows a few of the values that one paper quotes. Numbers after ± are the reported error.

Sample 1
Organism: SARS-CoV-2
Read-out: viral cytopathic effect
Cell line: Vero E6
Tested at: 20 µM
Endpoint: inhibition
N#C/C(=C\c1ccc(O)c(O)c1)C(=O)OCCc1cccs1: 0.02%
O=c1c(O)c(-c2cc(O)c(O)c(O)c2)oc2cc(O)cc(O)c12: -0.28%
O=C1OC2(c3cc(I)c(O)c(I)c3Oc3c2cc(I)c(O)c3I)c2c(Cl)c(Cl)c(Cl)c(Cl)c21: 2.67%

Sample 2
Organism: SARS-CoV-2
Read-out: cytopathic effect
Cell line: Caco-2
Tested at: 10 µM
Endpoint: inhibition
CC(=O)O/N=C1\C(=O)N(Cc2cc(Cl)ccc2Cl)c2ccc(Cl)cc21: -1.2%
[O-][S+](c1ccccc1)c1ccc2nnnn2n1 (stereo not drawn): -2.4%
Nc1nc(-c2ccc(Cl)c(Cl)c2)c(-c2ccncc2)s1: 2.6%
O=C1C(Cl)=C(N2CCOCC2)C(=O)N1c1ccc(Cl)c(Cl)c1: -14.6%
O=C(/C=C/c1ccc2ccccc2n1)c1ccncc1: 101%
O=C(O)[C@H]1O[C@@H](Oc2cc3oc(-c4ccccc4)cc(=O)c3c(O)c2O)[C@H](O)[C@@H](O)[C@@H]1O: -3%
Oc1cc2c(cc1O)C(c1ccccc1)CNCC2 (stereo not drawn): 0.272%
CC(=O)[O][Pt]([NH2])([Cl])([Cl])([NH]C1CCCCC1)[O]C(C)=O: 13.3%
C[C@@H]1O[C@@H](O[C@@H]2[C@@H](O)[C@H](OCCc3ccc(O)c(O)c3)O[C@H](CO)[C@H]2OC(=O)/C=C/c2ccc(O)c(O)c2)[C@H](O)[C@H](O)[C@H]1O: -2.1%
O=C(C=Cc1ccc(O)c2c1C(C(=O)OC(Cc1ccc(O)c(O)c1)C(=O)O)C(c1ccc(O)c(O)c1)O2)OC(Cc1ccc(O)c(O)c1)C(=O)O (stereo not drawn): 4.8%
c1cnc2c([O][Ga]([O]c3cccc4cccnc34)[O]c3cccc4cccnc34)cccc2c1: 0.0366%
CC(=O)[O][Hg][c]1ccccc1: 46.4%
CN1CCc2cccc3c2[C@H]1Cc1ccc(O)c(O)c1-3: 0.6%
OC[C@H]1O[C@H]([S-])[C@H](O)[C@@H](O)[C@@H]1O.[Au+]: 2.4%
COc1cccc(C(=O)CCN[C@@H](C)[C@H](O)c2ccccc2)c1: 6.4%
C[n+]1c2cc(N)ccc2cc2ccc(N)cc21: 99.5%
CC(=O)OC[C@H]1O[C@@H]([S-])[C@H](OC(C)=O)[C@@H](OC(C)=O)[C@@H]1OC(C)=O.CCP(CC)CC.[Au+]: 12.8%
O=[N+]([O-])C(Br)(CO)CO: -9.8%
C=CC1=C(C)c2cc3[nH]c(cc4nc(cc5[nH]c(cc1n2)c(C)c5C=C)C(C)=C4CCC(=O)O)c(CCC(=O)O)c3C.[Fe+3]: 62.9%
C/C=C1/[C@H](O[C@@H]2O[C@H](CO)[C@@H](O)[C@H](O)[C@H]2O)OC=C(C(=O)OC)[C@H]1CC(=O)OCCc1ccc(O)c(O)c1: -0.5%
CN(CCCN1c2ccccc2CCc2ccccc21)CC(=O)c1ccc(Cl)cc1: 40.9%
CN1Cc2ccccc2[C@@H]2c3cccc4[nH]cc(c34)C[C@H]21: -8%
O=[N+]([O-])c1ccc(O)c2ncccc12: 3.8%
COc1ccc2[nH]c([S+]([O-])Cc3ncc(C)c(OC)c3C)nc2n1 (stereo not drawn): -1.5%
CNC(=O)ON(C(C)=O)C(=O)NC: 27.9%

Further values, each from its own experiment
CCC(CC)COC(=O)[C@H](C)N[P@](=O)(OC[C@H]1O[C@@](C#N)(c2ccc3c(N)ncnn23)[C@H](O)[C@@H]1O)Oc1ccccc1
IC50 (SARS-CoV-2; cytopathic effect; USA_WA1/2020): 10000 nM

CCOC(=O)[C@H]1O[C@@H]1C(=O)N[C@@H](CC(C)C)C(=O)NCCC(C)C
infectious progeny yield (Ebola virus; viral replication; concentration not given): decreased

COc1cc2c(cc1NC(=O)c1ccc(C(C)(C)C)cc1)CCCC2
EC50 (Venezuelan equine encephalitis virus; viral replication): 13200 nM

C[C@@H]1CCO[C@H]2Cn3cc(C(=O)NCc4ccc(F)cc4F)c(=O)c(O)c3C(=O)N12
EC50 (HIV-1; viral replication, single-round vector infection; IN R263K): 5.2 ± 0.6 nM

C[C@@H]1[C@H](O)[C@@H](C)/C=C/C=C/CC/C=C/C=C/C=C/C=C/C(O[C@H]2O[C@H](C)[C@@H](O)[C@H](N)[C@@H]2O)CC2O[C@](O)(CC(O)C(O)CCC(O)CC(O)CC(O)CC(=O)O[C@H]1C)CC(O)C2C(=O)O (stereo partly drawn)
infectivity reduction (African swine fever virus; macrophages; concentration not given): ≤ 80%

CC1(C)[C@@H](O)CC[C@]2(C)[C@H]3C(=O)C=C4[C@@H]5C[C@@](C)(C(=O)O)CC[C@]5(C)CC[C@@]4(C)[C@]3(C)CC[C@@H]12
EC50 (SARS-CoV-2; viral replication): 3170 nM

CCc1cc(F)c(Cc2cnc(Nc3ccc(C#N)c(Cl)c3)o2)c(F)c1
EC50 (HIV-1; viral replication; Y181C mutant): 7 nM

(−)-epigallocatechin-3-O-gallate
IC50 (Ebola virus VP35; dsRNA binding, inhibitor): 43500 nM

COc1cc2c(c(OC)n1)[C@]1(O)[C@H](O)[C@H](CN(C)C)[C@@H](c3ccccc3)[C@]1(c1ccc(C#N)cc1)O2
EC90 (SARS-CoV-2): 37 nM

Nc1nc2nc[nH]c2c(=S)[nH]1
IC50 (Replicase polyprotein 1ab, papain-like protease (rep, Severe acute respiratory syndrome coronavirus 2, UniProt P0DTD1); FlipGFP cell-based): > 60000 nM

O=C(/C=C/c1ccc(O)c2oc(-c3ccc(O)c(O)c3)cc12)O[C@H](Cc1ccc(O)c(O)c1)C(=O)O
EC50 (SARS-CoV-2; viral replication): 3410 nM

CC(C)(C)[C@H](NC(=O)C(F)(F)F)C(=O)N1C[C@H]2[C@@H]([C@H]1C(=O)N[C@H](C#N)C[C@@H]1CCNC1=O)C2(C)C
viral cytopathic effect (SARS-CoV-2; Vero; concentration not given): inhibited

COc1ccc(C[C@H]2NC[C@H](O)[C@H]2OC(C)=O)cc1
IC50 (SARS-CoV-2; viral infection; Vero E6): 31.4 nM

Cc1cnc(C(=O)N[C@H]2CCCCC/C=C\[C@@H]3C[C@@]3(C(=O)NS(=O)(=O)C3CC3)NC(=O)[C@@H]3C[C@@H](Oc4nc5ccccc5c5ccccc45)CN3C2=O)cn1
IC50 (SARS-CoV-2; viral replication; 293T/ACE2): 550 nM

CC(C)(C)[C@H](NC(=O)C(F)(F)F)C(=O)N1C[C@H]2[C@@H]([C@H]1C(=O)N[C@H](C#N)C[C@@H]1CCNC1=O)C2(C)C
EC50 (SARS-CoV-2; viral replication; Calu-3): 1900 ± 800 nM

COc1ccc([C@H]2c3[nH]c4ccc(Cl)cc4c3CCN2C(=O)Oc2ccc(Cl)cc2)cc1
EC50 (SARS-CoV-2; viral replication, measured: capsid protein; cell culture): 1.96 nM

COc1cc(O)c(C(=O)[C@@H]2[C@H](CC=C(C)C)C(C)=CC[C@H]2c2ccccc2)c(O)c1
IC50 (SARS-CoV-2; viral replication; Calu-3): 2040 nM

CCC(CC)COC(=O)[C@H](C)N[P@](=O)(OC[C@H]1O[C@@](C#N)(c2ccc3c(N)ncnn23)[C@H](O)[C@@H]1O)Oc1ccccc1
inhibition (Replicase polyprotein 1ab, nsp12 RdRp (rep, Severe acute respiratory syndrome coronavirus 2, UniProt P0DTD1); RdRp reporter activity, inhibitor; concentration not given): inhibited

O=C(NCc1c(F)cc(F)cc1F)c1cn2c(c(O)c1=O)C(=O)N1[C@H]3CC[C@H](C3)O[C@@H]1C2
EC50 (HIV-1; viral replication, single-round vector infection; IN G140S/Q148H): 4.6 ± 0.4 nM

CCN(CC)CCCC(C)Nc1c2ccc(Cl)cc2nc2ccc(OC)cc12 (stereo not drawn)
IC50 (Ebola virus; viral replication): 1310 nM

COc1ccc2c(O[C@@H]3C[C@H]4C(=O)N[C@]5(C(=O)NS(=O)(=O)C6CC6)C[C@H]5/C=C\CCCCN(C)C(=O)[C@@H]4C3)cc(-c3nc(C(C)C)cs3)nc2c1C
EC50 (SARS-CoV-2; viral replication; Huh7.5): 14000 nM

CC[C@H]1CN2CCc3cc(OC)c(OC)cc3[C@@H]2C[C@@H]1C[C@H]1NCCc2cc(OC)c(OC)cc21
IC50 (SARS-CoV-2; cytopathic effect; USA_WA1/2020): 46 nM

CCN(CC)CCOc1ccc2c(c1)C(=O)c1cc(OCCN(CC)CC)ccc1-2
IC50 (Ebola virus; viral replication): 1280 nM

Some of these lines once more (sample 2):
CN1CCc2cccc3c2[C@H]1Cc1ccc(O)c(O)c1-3: 0.6%
CN(CCCN1c2ccccc2CCc2ccccc21)CC(=O)c1ccc(Cl)cc1: 40.9%
COc1cccc(C(=O)CCN[C@@H](C)[C@H](O)c2ccccc2)c1: 6.4%
Oc1cc2c(cc1O)C(c1ccccc1)CNCC2 (stereo not drawn): 0.272%
CC(=O)O/N=C1\C(=O)N(Cc2cc(Cl)ccc2Cl)c2ccc(Cl)cc21: -1.2%
O=C1C(Cl)=C(N2CCOCC2)C(=O)N1c1ccc(Cl)c(Cl)c1: -14.6%
COc1ccc2[nH]c([S+]([O-])Cc3ncc(C)c(OC)c3C)nc2n1 (stereo not drawn): -1.5%
